Experimental data gathered from unrelated publications.
Compare with care: the assays were run in different laboratories. Numbers after ± are the reported error.

SMILES	assay	test system	setting	scale	endpoint	result
Cc1c(Cl)c(C)[n+]([O-])c(Cl)c1-c1no[14c](-c2cc(O)c(O)c([N+](=O)[O-])c2)n1		human, male, urine	oral, 100 mg, first 24 h	baseline: dose	total radioactivity recovered	~3%
CC(NC(=O)OC1OC(C(=O)O)C(O)C(O)C1O)c1cc(Cl)ccc1Cn1c(=S)[nH]c(=O)c2[nH]ccc21 (stereo not drawn)		Sprague-Dawley rat, female, plasma	oral, 125 mg/kg/day	baseline: rat over human 15 mg	exposure ratio	1.4
CCCC[C@H](NC(=O)CN1CCC(NC(=O)CN2CCN(CC(=O)O)CCN(CC(=O)O)CCN(CC(=O)O)CC2)CC1)C(=O)N[C@H]1CC(=O)NCCCC[C@@H](C(N)=O)NC(=O)[C@H](Cc2c[nH]c3ccccc23)NC(=O)[C@H](CCCNC(=N)N)NC(=O)[C@@H](Cc2ccccc2)NC(=O)[C@H](Cc2c[nH]cn2)NC1=O [gallium-68 labelled]	biodistribution	C57BL/6J mouse male tumour-bearing	1 h post injection, unblocked	baseline: tumour over kidney	tumour to kidney ratio	2.7 ± 0.9
Oc1cccc(-c2cccc(O)n2)n1.[Cl-].[Cl-].[Ru+2].c1cnc2c(c1)ccc1cccnc12.c1cnc2c(c1)ccc1cccnc12	shake flask	octanol/buffer			logP of basic form	1.7
CC(C)CCNCC(=O)O	shake flask	water	24 h		logP	-1.13
CC(C)[C@H](NC(=O)[C@@H]1CCCN1C(=O)[C@H](CCCNC(=N)N)NC(=O)[C@H](CS)NC(=O)[C@H](Cc1c[nH]c2ccccc12)NC(=O)[C@H](CCCNC(=N)N)NC(=O)[C@@H](Cc1ccccc1)NC(=O)[C@H](Cc1c[nH]cn1)NC(=O)[C@H](CCC(=O)O)NC(=O)[C@H](CS)NC(=O)[C@H](CS)NC(=O)[C@@H]1CC(=O)N[C@@H](CCCNC(=N)N)C(=O)NCC(=O)N[C@@H](CC(=O)O)C(=O)N[C@H](Cc2ccc(O)cc2)C(=O)N1)C(N)=O [technetium-99m labelled]		C57 mice B16/F1 melanoma female, urine	iv, 0.037 MBq, 24 h		excretion	90.2 ± 3.25%
N=C(N)NCCC[C@@H]1NC(=O)[C@H](Cc2c[nH]c3ccccc23)NC(=O)[C@@H](CC2CCCCC2)NC(=O)[C@@H]2CCCN2C(=O)[C@@H](NC(=O)CCc2ccccc2)CCCNC1=O		C57BL/6J mouse, spinal cord	oral, 1 mg/kg, single dose, two-compartment model		distribution rate constant (K12)	< 0.01 h⁻¹
CCNC(=O)c1noc(-c2cc(C(C)C)c(O)cc2O)c1NC(=O)CCN1CCOCC1		CD1 nude mouse, A-431 xenograft, plasma	intraperitoneal, 80 mg/kg single		Tmax	1 h
COc1cc(/C=C/C(=O)N2CCc3ccccc3C2)ccc1O[11CH3]	PET-CT	mouse C57BL/6, male, whole brain	intravenous		maximum brain uptake	11.2 %ID/cc
CC[C@H](C)[C@H](NC(=O)[C@@H]1CCCN1C(=O)CNC(=O)[C@H](Cc1ccccc1)NC(=O)[C@H](CC(N)=O)NC(=O)[C@H](CC(N)=O)NC(=O)[C@H](CO)NC(=O)[C@H](CO)NC(=O)[C@H](Cc1c[nH]cn1)NC(=O)[C@@H](NC(=O)[C@H](CC(C)C)NC(=O)[C@H](Cc1ccccc1)NC(=O)[C@H](CC(N)=O)NC(=O)[C@H](C)NC(=O)[C@H](CC(C)C)NC(=O)[C@H](CCCNC(=N)N)NC(=O)[C@H](CCC(N)=O)NC(=O)[C@@H](NC(=O)[C@H](C)NC(=O)[C@@H]1CSSC[C@H](NC(=O)[C@@H](N)CCCCN)C(=O)N[C@@H](CC(N)=O)C(=O)N[C@@H]([C@@H](C)O)C(=O)N[C@@H](C)C(=O)N[C@@H]([C@@H](C)O)C(=O)N1)[C@@H](C)O)C(C)C)C(=O)N[C@@H](CC(C)C)C(=O)N[C@@H](CO)C(=O)N[C@@H](CO)C(=O)N[C@H](C(=O)N[C@@H](CC(N)=O)C(=O)N[C@H](C(=O)NCC(=O)N[C@@H](CO)C(=O)N[C@@H](CC(N)=O)C(=O)N[C@H](C(=O)N[C@@H](Cc1ccc(O)cc1)C(N)=O)[C@@H](C)O)C(C)C)[C@@H](C)O	ion mobility mass spectrometry	nitrogen drift gas	monomer charge +4, compact conformer		collision cross section	552 ± 13.4 Å²
CN(C)c1ccc(-c2nc3ccc(OCCCCCN4CCN5CCN(CC4)CC(=O)[O][Al]([18F])[O]C(=O)C5)cc3s2)cc1		ICR mouse, heart	intravenous, 2 min		tissue uptake	8.65 ± 1.34 %ID/g
CCCC[C@H](NC(=O)CNC(=O)CNC(=O)CN1CCN(CC(=O)O)CCN(CC(=O)O)CC1)C(=O)N[C@H]1CC(=O)NCCCC[C@@H](C(N)=O)NC(=O)[C@H](Cc2c[nH]c3ccccc23)NC(=O)[C@H](CCCNC(=N)N)NC(=O)[C@@H](Cc2ccccc2)NC(=O)[C@H](Cc2c[nH]cn2)NC1=O [copper-64 labelled]		female C57 mouse, B16/F1 melanoma	intravenous, 0.037 MBq, 24 h	baseline: tumour over stomach	uptake ratio	19.3
O=c1nc(NO)ccn1[C@@H]1O[C@H](CO)[C@@H](O)[C@H]1O	RT-PCR, item: CYP2C13	rat, arthritis model, liver	oral, 80 mg/kg twice daily, 5 days	baseline: untreated arthritic rats	mRNA level	0.6 fold
Cc1ccc(OCC(=O)O)cc1		Sprague-Dawley rat Crl:CD(SD), female, plasma	oral, 10 mg/kg/day of parent drug, day 90, 90-day repeated dosing		t1/2	167 min
OC[C@H]1c2[nH]cnc2[C@H](O)[C@@H](O)[C@@H]1O					pKa of conjugate acid	6
C[C@]12C[C@H](c3ccc(C(=O)O)cc3)C3=C4CCC(=O)C=C4CC[C@H]3[C@@H]1CC[C@@]2(O)C(F)(F)C(F)(F)F		human liver microsomes	100 % absorption assumed		maximal oral bioavailability	98%
COc1cc(NC(C)=O)c2c(c1O)-c1c(OC)c(OC)cc3c1C(C2)N(C)CC3 (stereo not drawn)		rat, plasma	50 µg/mL, time not given, -20 °C to room temperature, three freeze-thaw cycles		remaining compound	105 ± 6.6%
CC(C)(O)c1ncc([S@](N)(=O)=NC(=O)Nc2c3c(cc4c2CCC4)CCC3)s1		human, plasma	oral, 100 mg, single dose, fed, healthy volunteers		AUC(0-inf)	117 µg·h/mL
O=C([O-])CN1CCN(CC(=O)[O-])CCN(CC(=O)NCCc2ccc3c(c2)C2C=CCC2C(c2cc4c(cc2Br)OCO4)N3)CCN(CC(=O)[O-])CC1.[111In+3] (stereo not drawn)		mouse, Hec50 tumour-bearing, urinary bladder	2 h, with: blocking with 5 µg G-1		tissue uptake	0.5 ± 0.16 %ID/g
NC[C@@H](C(=O)Nc1ccc(-c2cn[nH]c2)cc1)c1ccccc1	OECD 405 eye irritation	New Zealand White rabbit, eye	topical, 0.1%, 32 h (day 2), scale 0 to 4	direction not given	cornea score	0
CCCC[C@@H]1NC(=O)[C@@H](NC(=O)[C@H](CCC(=O)O)NC(=O)CNC(=O)CN2CCN(CC(=O)O)CCN(CC(=O)O)CCN(CC(=O)O)CC2)CCCCNC(=O)C[C@@H](C(N)=O)NC(=O)[C@H](C(C)C)NC(=O)[C@@H]2CCCN2C(=O)[C@H](CCCNC(=N)N)NC(=O)CNC(=O)[C@H](Cc2c[nH]c3ccccc23)NC(=O)[C@H](CCCNC(=N)N)NC(=O)[C@@H](Cc2ccccc2)NC(=O)[C@H](Cc2c[nH]cn2)NC(=O)[C@H](CCC(=O)O)NC1=O [gallium-67 labelled]		normal C57 mice, muscle	intravenous, 0.037 MBq/mouse, 2 h		tissue uptake	0.1 ± 0.05 %ID/g
NC12CNCCNCC(NCc3ccc(CNC(=O)CCCC(=O)NCc4ccc(-c5nncnn5)cc4)cc3)(CNCCNC1)CNCCNC2.[64Cu+2]	OLINDA dosimetry	skin	48 h pretargeting interval, with: huA33-TCO pretargeting		mean absorbed dose	0.0277 rad/mCi
CCCC[C@H](NC(=O)CNC(=O)CNC(=O)CN1CCN(CC(=O)O)CCN(CC(=O)O)CCN(CC(=O)O)CC1)C(=O)N[C@H]1CC(=O)NCCCC[C@@H](C(N)=O)NC(=O)[C@H](Cc2c[nH]c3ccccc23)NC(=O)[C@H](CCCNC(=N)N)NC(=O)[C@@H](Cc2ccccc2)NC(=O)[C@H](Cc2c[nH]cn2)NC1=O [indium-111 labelled]		C57 mouse, B16/F1 melanoma	4 h	baseline: tumour over skin	tumour to skin uptake ratio	68.9
[11CH3]c1ccc2nc(C3CCC3)n(-c3ccc4[nH]ncc4c3)c2n1	extrapolated from mouse biodistribution	human male, gallbladder wall			absorbed dose	4 µSv/MBq
CC1=CC(C)(C)N=C2C=CC(=O)C=C12	LC-MS/MS	piglets, kidney	oral in feed, 50 mg/kg feed ethoxyquin, 42 days		tissue residue	3 ± 1.5 ng/g
COCC1CN(C2CCN(c3cc(OC)c(Nc4ncc(Br)c(Nc5ccc6c(c5P(C)(C)=O)OCCO6)n4)cc3C)CC2)C1		human patients	oral, 10 to 240 mg once daily		treatment-related Anemia, all grades	11.1%
COCCN(CC(N)=O)C(=O)CN(CCOC)C(=O)CN(CCOC)C(=O)CN(CCOC)C(=O)CN(CCOC)C(=O)CN(CCOC)C(=O)CN(CCOC)C(=O)CN(CCCCC(N)C(=O)O)C(=O)CN(CCOC)C(=O)CN(CCOC)C(=O)CN(CCOC)C(=O)CN(CCOC)C(=O)CN(CCOC)C(=O)CN(CCOC)C(=O)C(Cc1ccccc1)NC(C)=O (stereo not drawn)	potentiometric titration with KOH	100 x 1 mM KCl			pKa of COOH group	3.1
